# Published values pooled from the literature.
# Lines come from different studies, so protocols differ. Substitutions count along the parent as printed.
# Atg9 residues 940-997: Atg9 fragment (Saccharomyces cerevisiae)
# P1: Atg23 dimer, full-length; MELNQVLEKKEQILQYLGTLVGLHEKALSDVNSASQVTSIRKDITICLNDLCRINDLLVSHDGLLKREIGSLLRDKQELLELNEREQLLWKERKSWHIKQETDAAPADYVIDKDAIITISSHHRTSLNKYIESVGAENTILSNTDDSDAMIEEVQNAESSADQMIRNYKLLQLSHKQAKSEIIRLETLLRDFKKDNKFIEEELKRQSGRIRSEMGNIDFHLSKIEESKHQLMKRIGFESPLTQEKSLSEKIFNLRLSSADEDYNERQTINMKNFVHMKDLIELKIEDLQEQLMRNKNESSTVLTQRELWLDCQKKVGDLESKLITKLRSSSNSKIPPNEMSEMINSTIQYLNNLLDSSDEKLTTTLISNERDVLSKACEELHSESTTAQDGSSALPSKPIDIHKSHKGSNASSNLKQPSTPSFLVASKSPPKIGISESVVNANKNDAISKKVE
# B1: UGT76G1 (Stevia rebaudiana, UniProt Q6VAB4); chain MENKTETTVRRRRRIILFPVPFQGHINPILQLANVLYSKGFSITIFHTNFNKPKTSNYPHFTFRFILDNDPQDERISNLPTHGPLAGMRIPIINEHGADELRRELELLMLASEEDEEVSCLITDALWYFAQSVADSLNLRRLVLMTSSLFNFHAHVSLPQFDELGYLDPDDKTRLEEQASGFPMLKVKDIKSAYSNWQILKEILGKMIKQTKASSGVIWNSFKELEESELETVIREIPAPSFLIPLPKHLTASSSSLLDHDRTVFQWLDQQPPSSVLYVSFGSTSEVDEKDFLEIARGLVDSKQSFLWVVRPGFVKGSTWVEPLPDGFLGERGRIVKWVPQQEVLAHGAIGAFWTHSGWNSTLESVCEGVPMIFSDFGLDQPLNARYMSDVLKVGVYLENGWERGEIANAIRRVMVDEEGEYIRQNARVLKQKADVSLMKGGSSYESLESLVSYISSL
# Chain of UniProt Q0JEB7 (whole entry, looked up): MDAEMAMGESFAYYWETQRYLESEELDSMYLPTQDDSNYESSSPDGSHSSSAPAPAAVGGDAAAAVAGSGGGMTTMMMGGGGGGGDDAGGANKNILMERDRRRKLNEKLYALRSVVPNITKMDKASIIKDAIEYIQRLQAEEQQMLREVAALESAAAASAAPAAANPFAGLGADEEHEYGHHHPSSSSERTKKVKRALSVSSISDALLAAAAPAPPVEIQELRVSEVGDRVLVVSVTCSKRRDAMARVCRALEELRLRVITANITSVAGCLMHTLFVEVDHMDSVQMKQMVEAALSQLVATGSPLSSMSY
Molecule,target or system,assay,system,conditions,measurement,value
P1 L323R,Atg9 residues 940-997,BLI,,"8 µM, steady state, read off a plot",response,0.018 nm
B1 (UGT76G1),C=C1C[C@@]23CC[C@H]4[C@@](C)(CCC[C@@]4(C)C(=O)O[C@@H]4O[C@H](CO)[C@@H](O)[C@H](O)[C@H]4O[C@@H]4O[C@H](CO)[C@@H](O)[C@H](O)[C@H]4O)[C@@H]2CC[C@]1(O[C@@H]1O[C@H](CO)[C@@H](O)[C@H](O)[C@H]1O[C@@H]1O[C@H](CO)[C@@H](O)[C@H](O)[C@H]1O)C3,steady-state kinetics,,"pH 7.25, 40 °C",kcat/Km,48800 M⁻¹ s⁻¹
P1 A377E,Atg9 residues 940-997,BLI,,"8 µM, steady state, read off a plot",response,0.012 nm
CCTCCAGGACTGGCCCACATGTCCGTGTGATCTCTC (dsDNA),"BHLH6 1-200 (Oryza sativa, UniProt Q0JEB7)",EMSA,"double-stranded DNA, one strand shown",,binding,binds
USP16 ZnF-UBP N85Y (Homo sapiens),ubiquitin mature (UniProt P0CG48),SPR,,,Kd,2000 nM
